Assay results from different studies.
Values after ≈ are worked out from the molar mass of the structure shown.
Sequence of UniProt P39656 (whole entry, looked up): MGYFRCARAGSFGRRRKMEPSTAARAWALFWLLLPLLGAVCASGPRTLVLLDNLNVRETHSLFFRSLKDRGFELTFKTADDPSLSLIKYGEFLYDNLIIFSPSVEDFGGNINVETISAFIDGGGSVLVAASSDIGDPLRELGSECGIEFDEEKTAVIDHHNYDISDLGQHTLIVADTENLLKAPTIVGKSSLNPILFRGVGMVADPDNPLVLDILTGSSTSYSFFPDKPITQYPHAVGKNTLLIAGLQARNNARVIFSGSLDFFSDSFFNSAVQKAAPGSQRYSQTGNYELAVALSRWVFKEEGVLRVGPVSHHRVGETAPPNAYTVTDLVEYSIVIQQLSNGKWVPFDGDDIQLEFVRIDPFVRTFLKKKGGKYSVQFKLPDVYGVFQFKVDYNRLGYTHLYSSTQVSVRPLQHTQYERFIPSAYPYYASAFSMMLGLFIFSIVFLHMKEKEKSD

Structure (SMILES)	tested on	assay	test system	setting	how to read	quantity	result
Cc1c2c(nn1C)CSCc1cc(n(C)n1)CSc1cc(c3ccccc3c1)OCCCc1c(C(=O)O)n(C)c3c-2c(Cl)ccc13	Staphylococcus aureus	label-free proteomics, refers to: rpmC	SA113	concentration not given	relative to: untreated	protein level fold change	14.3
C[C@H]1CN(c2n[nH]c3nc(N[C@H]4CC[C@H](NS(=O)(=O)CCC(F)(F)F)CC4)ncc23)CCO1	Dolichyl-diphosphooligosaccharide--protein glycosyltransferase 48 kDa subunit (Homo sapiens, UniProt P39656)	Kinobeads competition, refers to: DDOST		0.8 µM, unit not given	relative to: vehicle	remaining binding	1.31
CC(C)(C)n1nnnc1C(c1ccccc1)N1CCCc2ccccc21 (stereo not shown)	Schistosoma mansoni	microscopic viability scoring	newly transformed schistosomula	10 µM, 72 h, prescreen		viability reduction	0%
CC[C@H](C)[C@H](NC(=O)[C@H](Cc1ccccc1)NC(=O)[C@H](CCC(=O)O)NC(=O)[C@H](CCCNC(=N)N)NC(=O)[C@H](C)NC(=O)[C@H](C)NC(=O)[C@H](CCC(N)=O)NC(=O)[C@H](CCC(=O)O)NC(=O)[C@H](CCC(=O)O)NC(=O)[C@H](CC(C)C)NC(=O)[C@H](Cc1ccc(O)cc1)NC(=O)[C@H](CO)NC(=O)[C@H](CO)NC(=O)[C@@H](NC(=O)[C@H](CC(=O)O)NC(=O)[C@H](CO)NC(=O)[C@@H](NC(=O)[C@H](Cc1ccccc1)NC(=O)[C@@H](NC(=O)CNC(=O)[C@H](CCC(=O)O)NC(=O)[C@H](C)NC(=O)CCc1c[nH]cn1)[C@@H](C)O)[C@@H](C)O)C(C)C)C(=O)N[C@@H](C)C(=O)N[C@@H](Cc1c[nH]c2ccccc12)C(=O)N[C@@H](CC(C)C)C(=O)N[C@H](C(=O)N[C@@H](CCCNC(=N)N)C(=O)NCC(=O)N[C@@H](CCCNC(=N)N)C(=O)N[C@@H](CCCCNC(=O)COCCOCCNC(=O)COCCOCCNC(=O)CC[C@H](NC(=O)CCCCCCCCCCCCCCCCC(=O)O)C(=O)O)C(=O)NCC(=O)NCC(=O)N[C@@H](CO)C(=O)N[C@@H](CCCCNc1c(NCCCCCN(O)C(=O)CCC(=O)NCCCCCN(O)C(=O)CCC(=O)NCCCCCN(O)C(C)=O)c(=O)c1=O)C(=O)O)C(C)C [zirconium-89 labelled]			rat, liver	sc, 3 nmol/kg, 168 h, ex vivo		tissue uptake	0.45 %ID/g
Nc1ncnc2c1ncn2[C@@H]1O[C@@H]2COP(=O)(O)O[C@H]3[C@@H](O)[C@H](n4cnc5c(=O)[nH]cnc54)O[C@@H]3COP(=O)(O)O[C@H]2[C@H]1O	West Nile virus	RNA sequencing, refers to: non-integrin membrane-ECM interactions R-HSA-3000171	HFF-1 cells	concentration not given, downregulated pathway	relative to: WNV-infected untreated cells	fold enrichment	7.19
C[C@@H](O)[C@@H](CO)NC(=O)[C@@H](CCCNC(=N)N)NC(=O)[C@@H]1CCCN1C(=O)[C@@H]1CSSC[C@H](NC(=O)[C@H](Cc2ccccc2)NC(=O)CN2CCN(CC(=O)O)CCN(CC(=O)O)CCN(CC(=O)O)CC2)C(=O)N[C@@H](Cc2ccc(O)cc2)C(=O)N[C@@H](Cc2ccccc2)C(=O)N[C@@H](CCC(N)=O)C(=O)N[C@@H](CC(N)=O)C(=O)N1 [gallium-68 labelled]			Wistar rat, healthy, Pituitary gland	intravenous, 8 MBq, 120 min, mean		tissue uptake	0.2 %ID/g
CC[C@H](C)[C@@H]1NC(=O)[C@@H]2CCCN2C(=O)[C@H](CC(C)C)NC(=O)[C@H](CC(C)C)NC(=O)CNC(=O)[C@@H](NC(=O)[C@@H](NC(=O)[C@H](CC(=O)O)NC(=O)CNC(=O)[C@@H](NC(=O)[C@H](C)NC(=O)CNC(=O)[C@H](CCCCN)NC(=O)[C@H](CC(C)C)NC(=O)[C@H](CC(C)C)NC(=O)[C@H](CCCCN)NC(=O)CNC(=O)[C@@H](NC(=O)[C@@H](N)CC(C)C)C(C)C)C(C)C)C(C)C)CSSC[C@@H](C(=O)O)NC1=O		RNA-seq, refers to: Bcl2l11	mouse, traumatic brain injury model, frontal cortex and hippocampus	dose not given	relative to: TBI alone	log2 fold change	-1.8
CC[C@H](C)[C@H](NC(=O)[C@H](C)NC(=O)[C@H](CCCCN)NC(=O)[C@H](CC(C)C)NC(=O)[C@H](C)NC(=O)[C@@H](NC(=O)[C@H](Cc1c[nH]cn1)NC(=O)[C@H](CC(C)C)NC(=O)[C@@H](NC(=O)[C@@H](NC(=O)[C@H](CCCCN)NC(=O)[C@H](C)NC(=O)[C@H](C)NC(=O)[C@H](CO)NC(=O)[C@H](CCCCN)NC(=O)[C@H](Cc1ccccc1)NC(=O)[C@@H](NC(=O)[C@H](CCCCN)NC(=O)[C@H](CC(C)C)NC(=O)[C@H](Cc1ccccc1)NC(=O)[C@H](CO)NC(=O)[C@H](CCCCN)NC(=O)[C@H](Cc1c[nH]c2ccccc12)NC(=O)[C@H](CCCCN)NC(C)=O)[C@@H](C)O)[C@@H](C)O)C(C)C)[C@@H](C)O)C(=O)N[C@@H](CO)C(=O)N[C@@H](CO)C(N)=O	Streptococcus pyogenes		erythromycin-resistant	19 strains		MBC90	64 µg/mL (≈ 21.8 µM)
C[C@@H]1C[C@@]2(N=CCS2)[C@]2(O)O[C@@H]3C[C@@]4(C=O)[C@@H](CC[C@@H]5[C@@H]4CC[C@]4(C)[C@@H](C6=CC(=O)OC6)CC[C@]54O)C[C@H]3O[C@@H]2O1	Schistosoma mansoni	microscopic viability score	adult worms	1 µM, 72 h		viability effect	100%
C[C@@H](O[C@H]1OCCN(Cc2n[nH]c(=O)[nH]2)[C@H]1c1ccc(F)cc1)c1cc(C(F)(F)F)cc(C(F)(F)F)c1	Human immunodeficiency virus 1	viral replication	PBMC, CRF02_AG isolate from Djibouti, R5, NSI			IC50	11.7 µM
CS(=O)(=O)CCCn1c(Cn2c(=O)n(CC(F)(F)F)c3ccncc32)cc2cc(Cl)ccc21	respiratory syncytial virus	RT-qPCR	hospitalized infants 1-24 months, nasal swab	oral, 9, 6 or 5 mg/kg daily, day 6, high dose by age cohort	relative to: baseline	LS mean viral load change	-2.76 log10 copies/mL
CC(C)(C)c1cc(O)c2cc(Cc3ccccc3)c(=O)oc2c1	Schistosoma mansoni	microscopic viability score	adult worms	10 µM		viability reduction	26%
Nc1ncnc2c([C@@H]3N[C@H](CO)[C@@H](O)[C@H]3O)c[nH]c12	Rhinovirus A	viral replication	HRV2 HGP	0.9 µM		inhibition	30.3%

A few entries again:
Structure (SMILES)	tested on	assay	test system	setting	how to read	quantity	result
C[C@H]1CN(c2n[nH]c3nc(N[C@H]4CC[C@H](NS(=O)(=O)CCC(F)(F)F)CC4)ncc23)CCO1	Dolichyl-diphosphooligosaccharide--protein glycosyltransferase 48 kDa subunit (Homo sapiens, UniProt P39656)	Kinobeads competition, refers to: DDOST		0.8 µM, unit not given	relative to: vehicle	remaining binding	1.31
